{"data": "Published values collected from several papers", "note": "Every numbered part comes from another study and shows a few of its results, in no order. Substitutions count along the parent as printed."}
{"data": "Study 1", "target": "Histone acetyltransferase KAT6A, both winged helices, GST fusion (KAT6A, Homo sapiens, UniProt Q92794, residues 1-181)", "technique": "protein binding microarray", "form": "double-stranded DNA, one strand shown", "medium": "in vitro", "tested at": "not given", "setting": "8-mer, flanks averaged, mean of 2 arrays, mostly near background", "baseline": "not given", "reading": "higher = stronger binding", "Residues (chain)": "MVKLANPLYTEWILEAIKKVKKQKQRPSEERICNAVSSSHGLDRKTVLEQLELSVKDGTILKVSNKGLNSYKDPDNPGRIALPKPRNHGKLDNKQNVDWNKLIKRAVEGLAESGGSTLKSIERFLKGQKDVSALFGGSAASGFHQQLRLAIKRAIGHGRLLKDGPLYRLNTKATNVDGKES"}
{"Sequence": "TGTACAAA", "E-score": -0.0881}
{"Sequence": "AGGAAAAA", "E-score": -0.154}
{"Sequence": "ATATCCAC", "E-score": -0.0586}
{"Sequence": "ATGTTGCC", "E-score": 0.0722}
{"data": "Study 2", "target": "CCNB2, cyclin fold, Cln2 fusion (human)", "technique": "yeast growth competition, sequencing", "medium": "yeast", "setting": "weak parent motif", "baseline": "not given", "reading": "higher = stronger binding", "parent": "PKN2 docking peptide (human); VSAVRKLDFSDTM; partner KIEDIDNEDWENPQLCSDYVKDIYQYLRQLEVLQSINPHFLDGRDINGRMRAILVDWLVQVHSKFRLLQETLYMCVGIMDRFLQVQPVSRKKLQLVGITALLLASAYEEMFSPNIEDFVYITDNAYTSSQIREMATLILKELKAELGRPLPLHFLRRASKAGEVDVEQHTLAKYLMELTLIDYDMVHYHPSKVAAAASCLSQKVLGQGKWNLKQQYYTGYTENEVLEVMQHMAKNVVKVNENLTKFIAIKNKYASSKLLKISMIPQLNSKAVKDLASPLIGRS"}
{"Change": "F9N", "normalised enrichment score": 0.0476}
{"Change": "D8F", "normalised enrichment score": -0.107}
{"Change": "D8L", "normalised enrichment score": -0.0261}
{"data": "Study 3", "target": "Interferon regulatory factor 3, full length, phosphomimetic (IRF3, Homo sapiens, UniProt Q14653, residues 1-427, S386D/S396D/S398D/S402D/T404D/S405D)", "technique": "protein-binding microarray", "form": "double-stranded DNA, one strand shown", "medium": "in vitro", "tested at": "2540 nM top", "setting": "60-bp whole probe", "together with": "salmon DNA 0.4 mg/ml", "baseline": "random background probes", "reading": "higher = stronger binding", "shared flanks, not repeated": "GCCTAGCAC … GTGCTAGGTCTTGATTCGCTTGACGCTGCTG", "chain of UniProt Q14653 (whole entry, unmodified, looked up)": "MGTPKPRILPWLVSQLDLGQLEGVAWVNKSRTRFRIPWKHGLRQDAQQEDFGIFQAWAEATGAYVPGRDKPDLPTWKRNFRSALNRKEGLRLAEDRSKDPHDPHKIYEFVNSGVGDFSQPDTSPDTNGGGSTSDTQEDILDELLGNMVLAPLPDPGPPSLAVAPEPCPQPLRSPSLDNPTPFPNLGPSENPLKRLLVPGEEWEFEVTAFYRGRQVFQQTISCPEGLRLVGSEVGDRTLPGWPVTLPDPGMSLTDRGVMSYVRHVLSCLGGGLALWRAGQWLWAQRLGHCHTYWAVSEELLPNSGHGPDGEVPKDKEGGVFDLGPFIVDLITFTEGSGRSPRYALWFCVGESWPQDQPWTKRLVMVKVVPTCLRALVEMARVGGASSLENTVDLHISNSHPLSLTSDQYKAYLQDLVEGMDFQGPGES"}
{"Sequence": "TTAGGTCTCTGTTTCGGTTA", "fitted relative affinity": "3.93 z-score"}
{"Sequence": "TTCGATCTCAGTCTCGATTA", "fitted relative affinity": "1.18 z-score"}
{"Sequence": "GATGGTATCGGTATCGGGAC", "fitted relative affinity": "4.66 z-score"}
{"Sequence": "TCATATTGCTTTCTCTTACT", "fitted relative affinity": "1.8 z-score"}
{"Sequence": "TCAACTTTGAATTAGAAACT", "fitted relative affinity": "0.147 z-score"}
{"data": "Mixed results"}
{"Substance": "PhoQ, residues 284 288 289 292 302 303 SSYNSA", "target": "PhoP, residues 12 14 15 18 19 SPWRL (Escherichia coli, UniProt P23836)", "test": "Sort-seq, refers to: YFP reporter", "test system": "E. coli", "setting": "PhoQ-PhoP variant library, together with: 10 µM Mg2+", "how to read": "baseline: high Mg2+ state, higher = stronger signaling", "quantity": "fold induction", "value": 0.892}
{"note": "A few entries again (study 2):"}
{"Change": "D8L", "normalised enrichment score": -0.0261}
